Published values from different studies.
Numbered parts are unrelated; each lists some results of a single study. Substitutions count along the parent as printed.

Sample 1 — technique: aptamer microarray, sandwich; molecule type: DNA with 2'F-ANA; matrix: in vitro; tested at: 200 nM; together with: Cy3 exosite-II aptamer, 400 nM; reading: higher = stronger binding; quantity: mean fluorescence intensity; oligonucleotide: GGTTGGTGTGGTTGG
Target: Prothrombin, mature alpha-thrombin (F2, Homo sapiens, UniProt P00734)
Setting: whole 15-mer aptamer, many near background
2'F-ANA at 2 4 5 6 9 12 14: 55.5 a.u.
2'F-ANA at 1 3 4 5 11 12 13 15: 69.8 a.u.
2'F-ANA at 1 2 3 4 6 7 8 9 10 11 13 14 15: 88 a.u.
2'F-ANA at 4 7 9 11 12 13: 328 a.u.
2'F-ANA at 1 3 4 5 6 7 8 9 10 12 15: 59.5 a.u.
2'F-ANA at 3 4 6 8 14 15: 266 a.u.
2'F-ANA at 3 7 8 10 12 13 14: 438 a.u.
2'F-ANA at 1 2 4 5 6 7 8 11 12 13 14 15: 52 a.u.
2'F-ANA at 1 3 4 5 8 14 15: 46.1 a.u.
2'F-ANA at 2 3 4 6 8 14: 290 a.u.
2'F-ANA at 1 4 5 6 7 9 10 11 12 13: 45.7 a.u.
2'F-ANA at 3 4 7 8 10 11 12 13 15: 286 a.u.
2'F-ANA at 3 7 10 13: 607 a.u.
2'F-ANA at 1 2 3 4 5 6 8 11 12 14 15: 47.2 a.u.
2'F-ANA at 1 3 4 13: 146 a.u.
2'F-ANA at 2 4 5 7 10 11 12 15: 61.8 a.u.
2'F-ANA at 1 3 4 6 7 8 11 15: 178 a.u.
2'F-ANA at 1 6 7 8 10 12 13 14: 60.1 a.u.

Sample 2 — technique: protein binding microarray; molecule type: double-stranded DNA, one strand shown; matrix: in vitro; tested at: not given; relative to: not given; reading: higher = stronger binding; quantity: E-score
Target: Histone acetyltransferase KAT6A, winged helix 2, GST fusion (KAT6A, Homo sapiens, UniProt Q92794, residues 85-181)
Setting: 8-mer, flanks averaged, mean of 2 arrays, mostly near background
Residues (chain): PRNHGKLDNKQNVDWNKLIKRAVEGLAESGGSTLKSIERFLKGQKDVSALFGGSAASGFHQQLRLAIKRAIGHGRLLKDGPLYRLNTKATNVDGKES
ATCCTTTA: -0.0368
ACTATAAG: -0.135
AATCAACG: 0.0726
GGATGATA: 0.0209
CCACCCGC: 0.166
ATCCAGAC: 0.0687
CGACTCTA: -0.0832
AAAAGGGA: 0.019
AAACCAGT: -0.0866
ACTCTATA: -0.178
CGATCTAG: -0.203
CCTTAACC: -0.136
ATTGCTTG: -0.0356
AACAAGGA: 0.133
AATAGTGA: -0.0338
CACTAAAC: 0.0275
ATGAGGCG: -0.00326
GCATCCAA: -0.0719
ACCCCATC: -0.0116
TTGATCAA: -0.0971
AACTGTCG: -0.0219
ACAAGACG: -0.094
CAGTTAAG: 0.0484
CGGCCACA: 0.144
CATGACCA: -0.105

Sample 3 — technique: universal PBM; molecule type: double-stranded DNA, one strand shown; matrix: in vitro; tested at: not given; reading: higher = stronger binding; quantity: E-score
Target: Sal-like protein 4, full length isoform B (SALL4, Homo sapiens, UniProt Q9UJQ4-2, residues 1-616)
Setting: 8-mer, flanks averaged, mean of replicates
Construct (chain): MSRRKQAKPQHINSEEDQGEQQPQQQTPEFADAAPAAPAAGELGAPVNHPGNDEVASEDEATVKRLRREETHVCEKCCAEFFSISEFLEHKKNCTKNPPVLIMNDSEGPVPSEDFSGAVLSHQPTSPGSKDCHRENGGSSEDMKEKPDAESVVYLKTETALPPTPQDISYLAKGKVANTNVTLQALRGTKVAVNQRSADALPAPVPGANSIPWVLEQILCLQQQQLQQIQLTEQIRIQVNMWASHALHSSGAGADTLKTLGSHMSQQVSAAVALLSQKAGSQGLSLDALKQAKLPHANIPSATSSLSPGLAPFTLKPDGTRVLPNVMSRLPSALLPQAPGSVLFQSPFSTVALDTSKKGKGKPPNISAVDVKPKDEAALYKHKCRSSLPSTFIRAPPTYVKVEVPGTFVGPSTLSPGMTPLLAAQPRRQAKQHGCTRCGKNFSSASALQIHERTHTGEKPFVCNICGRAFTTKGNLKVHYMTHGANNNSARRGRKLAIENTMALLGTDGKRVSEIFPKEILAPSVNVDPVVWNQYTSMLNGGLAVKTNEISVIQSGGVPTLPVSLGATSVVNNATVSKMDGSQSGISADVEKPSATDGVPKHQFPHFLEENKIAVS
CAAACTAA: 0.154
CAATTACC: 0.134
GTAATGGA: 0.161
ATCCTCCA: 0.0638
ACTGCGCT: 0.0253
CCATTGGC: -0.201
AACGCATC: -0.0637
TCGGTCCA: -0.223
GAGCCAGA: -0.196
AGTGGAAC: 0.0144
ATGGGAGG: -0.0311
TCCTCGCA: -0.208
GTGAACTA: 0.12
ACCCCCCT: -0.405
CCACTAGG: -0.276
ATTGCAGA: 0.205

Sample 4 — technique: DHFR PCA, deep sequencing; matrix: yeast; together with: (+)-ABA 0.032 µM; relative to: wild-type fitted maximum; reading: higher = stronger binding; quantity: relative binding score
Target: ABI1, truncated, D143A, DHFR fusion (Arabidopsis thaliana)
Setting: methotrexate growth selection, single substitutions
Parent: PYL1, truncated, DHFR fusion (Arabidopsis thaliana); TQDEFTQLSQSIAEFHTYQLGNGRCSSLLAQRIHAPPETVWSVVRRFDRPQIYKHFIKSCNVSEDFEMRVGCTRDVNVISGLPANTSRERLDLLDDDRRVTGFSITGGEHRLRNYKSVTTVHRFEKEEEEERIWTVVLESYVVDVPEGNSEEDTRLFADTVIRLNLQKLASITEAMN
E147H: 11.3%
R32G: 3.29%
S63W: -4.34%
S26V: 0.427%
R90K: -1.06%
V161E: 3.54%
G102R: 0.336%
R163W: -1.87%
Y141I: 1.57%
R155E: -2.82%
T160P: -1.27%
V118H: 12.7%
N149P: -0.206%
G107E: 23.9%
V43R: 0.602%
D48H: -14.8%
L8H: 4.64%

Sample 5 — target: DBP, bZIP domain (human); technique: DHFR protein complementation; matrix: yeast; relative to: wild-type JUN-FOS pair; reading: higher = stronger binding; quantity: binding fitness
Setting: single substitutions, most at no-binding floor
Parent: JUN, bZIP domain (human); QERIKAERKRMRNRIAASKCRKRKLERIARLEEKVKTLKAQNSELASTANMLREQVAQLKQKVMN; partner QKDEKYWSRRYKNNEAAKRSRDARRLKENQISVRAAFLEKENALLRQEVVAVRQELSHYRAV
L52W: -1.56 natural log
R53G: -1.5 natural log
I28K: -1.47 natural log
E54K: -1.5 natural log
E54L: -1.52 natural log
A49R: -1.44 natural log
R53K: -1.54 natural log
S43N: -1.57 natural log
E44I: -0.889 natural log
R30H: -1.51 natural log
T48I: -1.44 natural log
V35L: -1.28 natural log
M51F: -1.49 natural log
A40G: -1.44 natural log
T48V: -1.49 natural log
V35M: -1.51 natural log
R53A: -1.4 natural log
V35D: -1.49 natural log
S47A: -1.43 natural log
V35P: -1.36 natural log
L45T: -1.49 natural log
A29V: -1.49 natural log
T37Q: -1.2 natural log
L31Q: -1.52 natural log
Q55N: -1.53 natural log

Sample 6 — target: CCNE2, cyclin fold, Cln2 fusion (human); technique: yeast growth competition, sequencing; matrix: yeast; setting: weak parent motif; relative to: not given; reading: higher = stronger binding; quantity: normalised enrichment score
Parent: RB1 docking peptide (human); PKPLKKLRFDIEG
G13Y: -0.00714
G13V: 0.725
K2Q: 0.322
K5R: 0.215
P1V: 0.462
R8M: 0.5
L7V: -0.184
K5Y: 0.187
P1I: 0.171
L4D: 1.3
K6I: 0.0699
I11Q: -0.0413
R8N: -0.414
E12L: 0.209
K6S: 0.467
P3A: 0.826
L7P: 1.18

Some of these lines once more (sample 3):
ACTGCGCT: 0.0253
CCATTGGC: -0.201
AACGCATC: -0.0637
TCGGTCCA: -0.223
GAGCCAGA: -0.196
AGTGGAAC: 0.0144
ATGGGAGG: -0.0311
TCCTCGCA: -0.208
GTGAACTA: 0.12
ACCCCCCT: -0.405
CCACTAGG: -0.276
ATTGCAGA: 0.205
